{"data": "Assay results collected from several papers", "note": "Numbers after ± are the reported error."}
{"Substance": "O=P(O)(OCCc1ccccc1)Oc1c2c(c(OP(=O)(O)OCCc3ccccc3)c3c1C1CC3c3cc4c(cc31)C1CC4c3ccccc31)C1CC2c2cc3c(cc21)C1CC3c2ccccc21", "test": "liposome dye leakage", "test system": "liposomes 200 nm", "setting": "30 min, added: carboxyfluorescein 50 mM", "quantity": "EC50", "result": "2.6 µM"}
{"Substance": "COc1ccc2c(c1)C(C)(C)C(/C=C/C1=C(Oc3ccc(C(=O)NCCCCOc4cc(CN(Cc5ccccn5)Cc5ccccn5)cc(CN(Cc5ccccn5)Cc5ccccn5)c4)cc3)C(=C/C=C3/N(CCCCS(=O)(=O)[O-])c4ccc(OC)cc4C3(C)C)CCC1)=[N+]2CCCCS(=O)(=O)[O-].O=[N+]([O-])O.O=[N+]([O-])[O-].O=[N+]([O-])[O-].O=[N+]([O-])[O-].[Zn+2].[Zn+2]", "test": "photoacoustic imaging", "test system": "BALB/c mouse LPS-induced sterile myositis, inflamed muscle", "setting": "intravenous, dose not given, 12 h", "how to read": "relative to: inflamed over vehicle control muscle", "quantity": "target-to-non-target ratio", "result": "1.04 ± 0.17"}
{"Substance": "CC[C@H](C)[C@H](NC(=O)[C@H](CCCNC(=N)N)NC(=O)[C@H](CCC(N)=O)NC(=O)[C@H](CC(=O)O)NC(=O)[C@H](CC(C)C)NC(=O)[C@H](CC(C)C)NC(=O)[C@H](CC(N)=O)NC(=O)[C@H](Cc1ccccc1)NC(=O)[C@H](CC(=O)O)NC(=O)[C@@H](NC(=O)[C@@H](NC(=O)[C@H](CC(N)=O)NC(=O)CNC(=O)[C@H](CO)NC(C)=O)C(C)C)[C@@H](C)CC)C(=O)N[C@H](C(=O)N[C@@H](Cc1c[nH]c2ccccc12)C(=O)N[C@@H](CCC(N)=O)C(=O)N[C@@H](CC(N)=O)C(=O)N[C@@H](Cc1c[nH]c2ccccc12)C(=O)N[C@@H](Cc1ccc(O)cc1)C(=O)N[C@@H](C)C(N)=O)[C@@H](C)CC", "test": "refers to: HA-19 tetramer", "test system": "tetramer+ CD4 T cells, PBMC, healthy adults, HLA-DRB1*0101", "setting": "dose not given, CD62L−CD45RA+/− or CD62L+CD45RA−", "quantity": "antigen-experienced T cells", "result": "48.1%"}
{"Substance": "CCCCCCCC/C=C\\CCCCCCCCOP(O)(O)=S.N", "test system": "C57BL/6 mouse", "setting": "subcutaneous, 1 mg/kg, 24 h after irradiation, LD50/10 endpoint, added: 6.4-8.6 Gy total-body irradiation", "quantity": "dose modification factor", "result": 1.2}
{"Substance": "Cc1ccc(/C=C/C(=O)O)cc1-c1cc2c(cc1C)C(C)(C)CCC2(C)C", "test": "RNA sequencing, refers to: Ccl6 mRNA", "test system": "rat, brain", "setting": "dose not given, 24 h, single dose", "how to read": "relative to: vehicle", "quantity": "log2 fold change", "result": -0.91}
{"Substance": "O=C(O)/C=C/c1cc(O)cc(O)c1", "setting": "250 µg/mL", "quantity": "ABTS radical scavenging", "result": "65.2 ± 1.03%"}
{"Substance": "CC[C@H](C)[C@H](NC(=O)[C@H](CCCNC(=N)N)NC(=O)[C@H](CCCNC(=N)N)NC(=O)[C@H](CC(C)C)NC(=O)[C@H](Cc1ccccc1)NC(=O)CNC(=O)CNC(=O)[C@@H](N)Cc1ccc(O)cc1)C(=O)N[C@@H](CCCNC(=N)N)C(=O)N1CCC[C@H]1C(=O)N[C@@H](CCCCN)C(=O)N[C@@H](CC(C)C)C(=O)N[C@@H](CCCCN)C(=O)N[C@@H](Cc1c[nH]c2ccccc12)C(=O)N[C@@H](CC(=O)O)C(=O)N[C@@H](CC(N)=O)C(=O)N[C@@H](CCC(N)=O)C(=O)O", "test system": "C57BL/6 mouse striatal membranes", "quantity": "EC50", "result": "2.1 ± 0.2 µM"}
{"Substance": "C[C@H]1[C@H]2CCC[C@]1(c1cccc(O)c1)CCN2CCc1ccccc1", "test system": "ICR mice, male and female", "setting": "dose not given, added: naltrexone 1.0 mg/kg sc 10 min before", "quantity": "locomotor activity", "result": "decreased"}
{"Substance": "O=C(O)CCCC(=O)O", "setting": "62.5 µg/mL", "quantity": "ABTS radical scavenging", "result": "47.5 ± 2.06%"}
{"Substance": "CCN(Cc1ccccc1)C(=O)CCc1nc(CN2CCN(C(=O)Cc3ccc(OC)c(OC)c3)CC2)no1", "test": "cold withdrawal threshold, cold plate", "test system": "mouse CCI model", "setting": "5 mg/kg, 4 °C, dosing from day 11", "quantity": "onset day", "result": "11 days"}
{"Substance": "somatostatin", "test system": "Sprague-Dawley rat, streptozotocin-induced diabetes, retina", "setting": "eye drops, 10 mg/mL, score 1", "quantity": "GFAP-positive glial activation", "result": "50%"}
{"Substance": "[N]#[Os]([Cl])([Cl])[Cl].c1cnc2c(c1)ccc1cccnc12", "test": "gel electrophoresis", "test system": "pUC19 plasmid DNA", "quantity": "DNA degradation concentration", "result": "> 250 µM"}
{"Substance": "CCN(CCCCOc1ccc(CCC(=O)N2CCC(Cc3ccccc3)CC2)cc1OC)Cc1ccccc1", "test": "step-down passive avoidance", "test system": "scopolamine-induced amnesic mice", "setting": "6.5 mg/kg", "quantity": "step-down latency", "result": "180 s"}
{"Substance": "CCc1nnc(-c2c(OC)cc(-c3cnc4cc(-c5cnn(C)c5)ccn34)cc2OC)o1", "test": "RT-qPCR, refers to: Acp5", "test system": "male C57BL/6J mouse, cortical bone", "setting": "oral gavage, dose not given, 3 wk once daily", "how to read": "relative to: vehicle", "quantity": "mRNA level", "result": "increased"}
{"Substance": "COc1ccc([N+](=O)[O-])cc1NC(=O)CCC(=O)[O][Zn][O]C(=O)CCC(=O)Nc1cc([N+](=O)[O-])ccc1OC.c1ccncc1", "test": "ABTS", "setting": "250 µg/mL", "quantity": "ABTS radical scavenging", "result": "71.85 ± 0.57%"}
{"Substance": "O=c1c(O)c(-c2cc(O)ccc2O)oc2cc(O)cc(O)c12", "setting": "250 µg/mL", "quantity": "ABTS radical scavenging", "result": "67.1 ± 1.1%"}
{"Substance": "Cc1ccc2c(n1)c(-c1cccc(S(C)(=O)=O)c1)c(C)n2C/C(F)=C/CN", "test": "refers to: pyridinoline", "test system": "male C57BL/6J mice myocardial infarction, heart", "setting": "oral, 14 mg/kg daily, 28 days", "how to read": "relative to: vehicle", "quantity": "mature collagen crosslinks", "result": "decreased"}
{"Substance": "C[C@H](NC(=O)[C@H](CCCCN)NC(=O)[C@H](CCCCN)NC(=O)[C@H](CCC(=O)O)NC(=O)[C@@H]1CCCN1)C(=O)N[C@@H](CCCCN)C(=O)N[C@@H](CCCCN)C(=O)N[C@@H](CCCCN)C(=O)O", "test": "Griess", "test system": "RAW264.7, mouse", "setting": "1000 µg/mL, 24 h, added: heat-killed Cutibacterium acnes 100 µg/mL", "how to read": "relative to: no peptide control", "quantity": "NO production", "result": "44.9%"}
{"Substance": "CCCCCCCCCCCCCCCC(=O)N[C@@H](CCC(=O)NCCOCCOCCC(=O)NCCOCCOCCC(=O)NCCCC[C@H](NC(=O)[C@H](CC(=O)O)NC(=O)[C@H](CC(C)C)NC(=O)[C@H](Cc1ccc(O)cc1)NC(=O)[C@H](CCCCN)NC(=O)[C@H](CO)NC(=O)[C@H](Cc1ccc(O)cc1)NC(=O)[C@H](CC(=O)O)NC(=O)[C@H](CO)NC(=O)[C@@H](NC(=O)[C@H](Cc1ccccc1)NC(=O)[C@@H](NC(=O)CNC(=O)[C@H](CCC(N)=O)NC(=O)[C@@H](CO)NC(=O)[C@@H](N)Cc1c[nH]cn1)[C@@H](C)O)[C@@H](C)O)C(=O)N[C@@H](CCCNC(=N)N)C(=O)N[C@@H](CCCNC(=N)N)C(=O)N[C@@H](C)C(=O)N[C@@H](CCC(N)=O)C(=O)N[C@@H](CC(=O)O)C(=O)N[C@@H](Cc1ccccc1)C(=O)N[C@H](C(=O)N[C@@H](CCC(N)=O)C(=O)N[C@@H](Cc1c[nH]c2ccccc12)C(=O)N[C@@H](CC(C)C)C(=O)N[C@@H](CC(C)C)C(=O)N[C@@H](CC(N)=O)C(=O)N[C@H](C(=O)NCC(=O)NCC(=O)N1CCC[C@H]1C(=O)N[C@@H](CO)C(=O)N[C@@H](CO)C(=O)NCC(=O)N[C@@H](C)C(=O)N1CCC[C@H]1C(=O)N1CCC[C@H]1C(=O)N1CCC[C@H]1C(=O)N[C@@H](CO)C(N)=O)[C@@H](C)O)C(C)C)C(=O)O", "test": "histology", "test system": "C57BL/6J mouse CCl4 model", "setting": "60 µg/kg, 6 weeks", "quantity": "liver inflammation and fibrosis", "result": "decreased"}
{"Substance": "N[C@@H](Cc1ccc(O)cc1)C(=O)N1CCC[C@H]1C(=O)NCC(=O)NCC(=O)O", "test": "diketopiperazine formation, transition state theory", "test system": "1-propanol", "setting": "70, 80, 90 °C, 0.5% acetic acid", "quantity": "ΔS‡ at 298.15 K", "result": "-74 ± 18 J/(mol·K)"}
{"Substance": "CC[C@H](C)[C@H](NC(=O)[C@@H](NC(=O)[C@H](CC(=O)O)NC(C)=O)[C@@H](C)O)C(=O)N[C@@H](CCCNC(=N)N)C(=O)N[C@@H](CC(C)C)C(=O)N[C@@H](CC(C)C)C(=O)N[C@@H](Cc1ccccc1)C(=O)N[C@@H](CCC(N)=O)C(=O)N[C@@H](CC(C)C)C(=O)N[C@@H](CCSC)C(=O)N[C@@H](CCCNC(=N)N)C(=O)N1CCC[C@H]1C(=O)N1CCC[C@H]1C(=O)N[C@@H](CC(N)=O)C(=O)N[C@@H](CCSC)C(=O)N[C@H](C(=O)N1CCC[C@H]1C(=O)N[C@@H](C)C(=O)N[C@H](C(=O)N[C@@H](CC(N)=O)C(=O)N[C@@H](C)C(N)=O)C(C)C)[C@@H](C)O", "test": "refers to: HA-15 tetramer", "test system": "tetramer+ CD4 T cells, PBMC, healthy adults, HLA-DRB1*0101", "setting": "dose not given, CD62L−CD45RA+/− or CD62L+CD45RA−", "quantity": "antigen-experienced T cells", "result": "63.2%"}
{"Substance": "C#CCCCCOP(=O)(O)Oc1c2c(c(OP(=O)(O)OCCCCC#C)c3c1C1CC3c3cc4c(cc31)C1CC4c3ccccc31)C1CC2c2cc3c(cc21)C1CC3c2ccccc21", "test": "liposome dye leakage", "test system": "liposomes 200 nm", "setting": "30 min, added: carboxyfluorescein 50 mM", "quantity": "EC50", "result": "90.3 µM"}
{"Substance": "CS(C)(=O)=Nc1ccc(-c2ccc(-c3nc4cc(O[C@@H]5CO[C@H]6[C@@H]5OC[C@H]6O)[nH]c4cc3F)cc2)cc1", "test system": "ob/ob mouse, AMLN diet NASH model", "setting": "oral, 5 mg/kg daily, 8 weeks", "how to read": "relative to: vehicle", "quantity": "liver weight", "result": "decreased"}
{"Substance": "O=P(O)(OCc1ccccc1)Oc1c2c(c(OP(=O)(O)OCc3ccccc3)c3c1C1CC3c3cc4c(cc31)C1CC4c3ccccc31)C1CC2c2cc3c(cc21)C1CC3c2ccccc21", "test": "liposome dye leakage", "test system": "liposomes 200 nm", "setting": "30 min, added: carboxyfluorescein 50 mM", "quantity": "EC50", "result": "4 µM"}
{"Substance": "CCOP(=O)(OCC)OCCCCOC(=O)CC1=C(C)/C(=C/c2ccc([S+](C)[O-])cc2)c2ccc(F)cc21 (stereo not shown)", "test system": "rat, Freund's adjuvant arthritis", "setting": "oral, 50 mg/kg once daily, prevention protocol", "quantity": "cartilage damage", "result": "no effect"}
